Results collected from several papers.
Each line is one published result; not all experiments were run side by side. “And” joins repeats or separate records; there may be more than shown. ± marks the error that the study gave.
rep main protease: Replicase polyprotein 1ab, main protease (rep, Severe acute respiratory syndrome coronavirus 2, UniProt P0DTD1)
Spike glycoprotein: Spike glycoprotein (Severe acute respiratory syndrome coronavirus 2, UniProt P0DTC2)

Molecule = NC(=O)C1=C(O)C[C@@H]2C[C@@H]3Cc4cccc(O)c4C(=O)C3=C(O)[C@]2(O)C1=O; tested on = rep main protease; assay = reporter gene (Gaussia luciferase), inhibitor; setting = 20 µM; measurement = inhibition; result = -1.05%
Molecule = O=C(CCc1cncc2ccccc12)N1CCc2cccc(-c3cn(CCO)nn3)c21; tested on = rep main protease; assay = enzyme activity, inhibitor; setting = 5 µM; measurement = inhibition; result = 23.3%
Molecule = Cn1cnc(Cn2c(=O)[nH]/c(=N\c3cc4cn(C)nc4cc3Cl)n(Cc3cc(F)c(F)cc3F)c2=O)n1; tested on = Cytochrome P450 2B6 (CYP2B6, Homo sapiens, UniProt P20813); assay = inhibitor; test system = human liver microsomes; setting = 30 min preincubation, preincubation without NADPH, added: efavirenz 5 µM; measurement = IC50; result = > 100 µM
Molecule = Cc1cncc(CC(=O)N2CCC[C@@H]([C@@H]3CCN(C(=O)c4cnn5cccnc45)C3)C2)c1; tested on = rep main protease; assay = enzyme activity, inhibitor; setting = 5 µM, run 1; measurement = inhibition; result = 9.3%
Molecule = NCCNCCNCCN; tested on = Angiotensin-converting enzyme 2 (ACE2, Homo sapiens, UniProt Q9BYF1); measurement = Emax; result = -60.8%
Molecule = CC[C@H](C)[C@H](NC(=O)[C@H](CC(C)C)NC(=O)[C@H](Cc1c[nH]c2ccccc12)NC(=O)[C@H](CCC(N)=O)NC(=O)[C@@H](NC(=O)[C@H](Cc1ccccc1)NC(=O)[C@H](C)NC(=O)[C@H](CCCCNC(=O)COCCOCCNC(=O)COCCOCCNC(=O)CC[C@H](NC(=O)CCCCCCCCCCCCCCCCCCC(=O)O)C(=O)O)NC(=O)[C@H](CCC(N)=O)NC(=O)[C@H](C)NC(=O)[C@@H](NC(=O)[C@H](CCCCN)NC(=O)[C@H](CC(=O)O)NC(=O)[C@H](CC(C)C)NC(=O)C(C)(C)NC(=O)[C@@H](NC(=O)[C@H](CO)NC(=O)[C@H](Cc1ccc(O)cc1)NC(=O)[C@H](CC(=O)O)NC(=O)[C@H](CO)NC(=O)[C@@H](NC(=O)[C@H](Cc1ccccc1)NC(=O)[C@@H](NC(=O)CNC(=O)[C@H](CCC(=O)O)NC(=O)C(C)(C)NC(=O)[C@@H](N)Cc1ccc(O)cc1)[C@@H](C)O)[C@@H](C)O)[C@@H](C)CC)[C@@H](C)CC)C(C)C)C(=O)N[C@@H](C)C(=O)NCC(=O)NCC(=O)N1CCC[C@H]1C(=O)N[C@@H](CO)C(=O)N[C@@H](CO)C(=O)NCC(=O)N[C@@H](C)C(=O)N1CCC[C@H]1C(=O)N1CCC[C@H]1C(=O)N1CCC[C@H]1C(=O)N[C@@H](CO)C(N)=O; assay = item: blood glucose ≤70 mg/dL; test system = healthy subjects; setting = 0.5 mg, multiple ascending dose; measurement = subjects with hypoglycaemia; result = 33.3%
Molecule = Nc1ncnc2c1ncn2CCOC(=O)c1ccc(S(=O)(=O)F)cc1; tested on = Calmodulin-sensitive adenylate cyclase (cya, Bacillus anthracis, UniProt P40136); measurement = kinact; result = 0.000183 s⁻¹
Molecule = O=C(O)[C@H]1O[C@@H](Oc2cc(O)c3c(=O)cc(-c4ccc(O)cc4)oc3c2)[C@H](O)[C@@H](O)[C@@H]1O; tested on = rep main protease; assay = reporter gene (Gaussia luciferase), inhibitor; setting = 20 µM; measurement = inhibition; result = -0.554%
Molecule = CC(C)=CCc1cc2c(cc1O)O[C@H](c1ccc(O)cc1)CC2=O; tested on = Spike glycoprotein; assay = binding; measurement = kon; result = 1940 M⁻¹ s⁻¹
Molecule = O=C(N[C@@H](CNC(=O)[C@@H]1CCCc2cn[nH]c21)c1ccc2ccccc2c1)c1cccnc1; tested on = rep main protease; assay = enzyme activity, inhibitor; setting = 5 µM, mean of runs; measurement = inhibition; result = 13.1%
Molecule = Cc1cnc(C(=O)N[C@H]2CCCCC/C=C\[C@@H]3C[C@@]3(C(=O)NS(=O)(=O)C3CC3)NC(=O)[C@@H]3C[C@@H](Oc4nc5ccccc5c5ccccc45)CN3C2=O)cn1; tested on = rep main protease; assay = reporter gene (Gaussia luciferase), inhibitor; setting = 20 µM; measurement = inhibition; result = 5.87%
Molecule = CC(=O)c1c(O)c(C)c(O)c(Cc2c(O)c3c(c(C(=O)/C=C/c4ccccc4)c2O)OC(C)(C)C=C3)c1O; tested on = Voltage-gated inwardly rectifying potassium channel KCNH2 (KCNH2, Homo sapiens, UniProt Q12809); assay = potassium current, whole-cell patch clamp; test system = HEK293 expressing hERG1; setting = 15 µM, at -120 mV; measurement = fast component amplitude; result = 47.3 ± 5%
Molecule = O=C(/C=C\c1cnccn1)NC[C@@H](NC(=O)c1cn[nH]c(=O)c1)c1ccc2ccccc2c1; tested on = rep main protease; assay = enzyme activity, inhibitor; setting = 5 µM, mean of runs; measurement = inhibition; result = 13.2%
Molecule = Cc1cc(-c2nn3c(-c4ccccc4)nnc3s2)c2ccccc2n1; tested on = Replicase polyprotein 1ab, nsp14 N7-methyltransferase (rep, Severe acute respiratory syndrome coronavirus 2, UniProt P0DTD1); assay = N7-methyltransferase activity, inhibitor, Py-FLINT; measurement = Hill slope; result = 1.33 ± 0.16
Molecule = CNC(=O)[C@@H](NC(=O)[C@H](CC(C)C)[C@H](O)C(=O)NO)C(C)(C)C; tested on = Daboia russelii venom proteases (SVMP); assay = protease activity, inhibitor; test system = MP population; setting = 0.1 µM, added: azocasein substrate; scale = reference: venom alone; measurement = remaining activity; result = 89% and 90.5% and 89.6%
Molecule = Aprotinin; tested on = rep main protease; assay = enzyme activity, mKate2 fluorescence reporter; test system = SARS-CoV-2; setting = 20 µM; measurement = inhibition; result = -0.0274%
Molecule = Cn1cnc(Cn2c(=O)[nH]/c(=N\c3cc4cn(C)nc4cc3Cl)n(Cc3cc(F)c(F)cc3F)c2=O)n1; test system = human, all renal function groups; setting = oral, 375 mg, treatment-related dry mouth, Mild severity; measurement = patients with adverse event; result = 3.1%
Molecule = Nc1ncnc2c([C@@H]3N[C@H](CO)[C@@H](O)[C@H]3O)c[nH]c12; tested on = Severe acute respiratory syndrome coronavirus; assay = viral replication, inhibitor; test system = Vero 76; setting = 9.5 µM; measurement = inhibition; result = 0%
Molecule = O=C(OC[C@H]1OC(OC(=O)c2cc(O)c(O)c(O)c2)[C@H](OC(=O)c2cc(O)c(O)c(O)c2)[C@@H](OC(=O)c2cc(O)c(O)c(O)c2)[C@@H]1OC(=O)c1cc(O)c(O)c(O)c1)c1cc(O)c(O)c(O)c1 (stereo partly shown); tested on = Spike glycoprotein; assay = binding, biolayer interferometry; measurement = koff; result = 0.00373 s⁻¹

For quick reference, copied from above:
Molecule = Nc1ncnc2c1ncn2CCOC(=O)c1ccc(S(=O)(=O)F)cc1; tested on = Calmodulin-sensitive adenylate cyclase (cya, Bacillus anthracis, UniProt P40136); measurement = kinact; result = 0.000183 s⁻¹
Molecule = CC[C@H](C)[C@H](NC(=O)[C@H](CC(C)C)NC(=O)[C@H](Cc1c[nH]c2ccccc12)NC(=O)[C@H](CCC(N)=O)NC(=O)[C@@H](NC(=O)[C@H](Cc1ccccc1)NC(=O)[C@H](C)NC(=O)[C@H](CCCCNC(=O)COCCOCCNC(=O)COCCOCCNC(=O)CC[C@H](NC(=O)CCCCCCCCCCCCCCCCCCC(=O)O)C(=O)O)NC(=O)[C@H](CCC(N)=O)NC(=O)[C@H](C)NC(=O)[C@@H](NC(=O)[C@H](CCCCN)NC(=O)[C@H](CC(=O)O)NC(=O)[C@H](CC(C)C)NC(=O)C(C)(C)NC(=O)[C@@H](NC(=O)[C@H](CO)NC(=O)[C@H](Cc1ccc(O)cc1)NC(=O)[C@H](CC(=O)O)NC(=O)[C@H](CO)NC(=O)[C@@H](NC(=O)[C@H](Cc1ccccc1)NC(=O)[C@@H](NC(=O)CNC(=O)[C@H](CCC(=O)O)NC(=O)C(C)(C)NC(=O)[C@@H](N)Cc1ccc(O)cc1)[C@@H](C)O)[C@@H](C)O)[C@@H](C)CC)[C@@H](C)CC)C(C)C)C(=O)N[C@@H](C)C(=O)NCC(=O)NCC(=O)N1CCC[C@H]1C(=O)N[C@@H](CO)C(=O)N[C@@H](CO)C(=O)NCC(=O)N[C@@H](C)C(=O)N1CCC[C@H]1C(=O)N1CCC[C@H]1C(=O)N1CCC[C@H]1C(=O)N[C@@H](CO)C(N)=O; assay = item: blood glucose ≤70 mg/dL; test system = healthy subjects; setting = 0.5 mg, multiple ascending dose; measurement = subjects with hypoglycaemia; result = 33.3%
